Measured values from different studies.
Protocols differ between the studies behind these lines. Several values in a cell are separate wells, animals, samples, runs or records.
Target: Aurora kinase B (AURKB, Homo sapiens, UniProt Q96GD4)

| SMILES | assay | test system | conditions | how to read | measurement | value |
| --- | --- | --- | --- | --- | --- | --- |
| CCn1cc(C(=O)O)c(=O)c2c(N)c(F)c(NC3CCCCC3)cc21 | kinase activity |  | 0.1 µM, together with: ATP at Km |  | inhibition | 4.1% |
| Cc1[nH]nc2c1N=C(c1ccccc1Cl)c1cnc(N3CCOCC3)cc1N2 | enzyme activity, inhibitor |  | 0.5 µM |  | inhibition | > 99% |
| CC1CCN(c2ccc(-c3n[nH]c(=O)c4cccnc34)cc2)CC1 | cell-free assay, competition with immobilised ligand |  | 10 µM |  | remaining binding | 13% |
| C[C@H]1CN(C(=O)c2cn(-c3ccnc(N)n3)c3cc(C#CC4(O)CCCCC4)ccc23)CCN1 | enzyme activity, inhibitor, FRET |  | 1 µM |  | inhibition | 53% |
| COc1ccc(NC(=O)Nc2ccc3c(c2)C(=O)N(C(C)CO)CC(C)C(CN(C)Cc2ccc4c(c2)OCO4)O3)cc1 (stereo not shown) | binding, competition with immobilised ligand |  | 10 µM |  | remaining binding | 0.5% |
| Cc1cnc2nc1Nc1cccc(c1)COC/C=C/COCc1cc(ccc1OCCN1CCOCC1)N2 | binding |  | 0.1 µM |  | remaining binding | 100% |
| COc1ccc(C(=O)/C=C/c2ccccc2-c2c[nH]c3ccc(C#N)cc23)c(O)c1 | enzyme activity, inhibitor |  | 20 µM |  | inhibition | 16% |
| CNC(=O)C[C@H](Cc1ccc(C#N)cc1)NC(=O)c1cc(-c2ccc(CN[C@H](C)c3ccc(C)cc3)o2)ccc1Cl | enzyme activity, inhibitor |  | 1 µM |  | activity vs control | 122% |
| C=C1CCCCCCCCCC(CO)C1=O (stereo not shown) | cell-free assay |  | 10 µM |  | remaining signal | 99% |
| C=CC(=O)N1CCCC(n2c(=O)c3ncccc3n(Cc3ccc(Oc4ccccc4)cc3)c2=O)C1 (stereo not shown) | cell-free assay, competition with immobilised ligand |  | 1 µM |  | remaining binding | 69% |
| C=CC(=O)Nc1cccc(-c2cnc3[nH]cc(C(=O)NC(C)(C)C)c3n2)c1 | kinase activity |  | 0.1 µM |  | inhibition | 16% and 19% |
| CN1CCN(Cc2ccc(NC(=O)c3cccc(C#Cc4cnc(N)c5ncccc45)c3)cc2C(F)(F)F)CC1 | cell-free assay, competition with immobilised ligand |  | 0.5 µM |  | remaining binding | 4.5% |
| O=C(Cc1ccc(OCc2ccccc2)cc1)NC1(C(=O)O)CCN(C(=O)c2ccc(-c3cccc(Cl)c3)cc2)CC1 | enzyme activity, inhibitor |  | 10 µM |  | activity vs control | 78% |
| Cc1cccc(O[C@H]2CCC[C@@H](C(C)CNCc3ccncc3)C2)c1 (relative stereo) | enzyme activity, inhibitor |  | 1 µM |  | inhibition | -3% |
| COc1cc(Nc2nc(C)cc(-c3cnn4nc(OC)ccc34)n2)cc(C(F)(F)F)c1 | inhibitor |  | 1 µM | baseline: control | remaining activity | 85% |
| N[C@H]1CC[C@H](Nc2nccc(-c3cccnc3Oc3ccc(NC(=O)NC4CC4)c4ccccc34)n2)CC1 | kinobead competition pulldown | HEK293/HCT116 lysate mixture | 10 µM, 1 h, 4 °C | lower = stronger competition | log2 LFQ intensity | 23.9 and 23.8 and 23.7 and 23.6 |
| C=CC(=O)N1Cc2nc(-c3cc(-c4cc(Cl)cnc4Cl)c(F)cc3F)n(-c3ccncn3)c2C1 | enzyme activity, inhibitor |  | 1 µM |  | inhibition | 5.8% |
| CNS(=O)(=O)Nc1nccc(Cc2c(C)c3ccc(Oc4ncccc4F)cc3oc2=O)c1F | binding, competition with immobilised ligand |  | 10 µM |  | remaining binding | 70% |
| NC(=O)C[C@H]1CCc2sc3ncnc(O[C@H]4CC[C@H](N5CCOCC5)CC4)c3c21 | enzyme activity, inhibitor |  | 10 µM |  | inhibition | 3% |
| C=CC(=O)N1CCc2ccc(-n3c(=O)ccc4cnc5ccc(-c6cnn(C)c6)cc5c43)cc21 | KINOMEscan |  | 1 µM | baseline: DMSO control | remaining binding | 97% |
| Cc1ccc(-c2c(/C=C(\C#N)C(=O)NC(C)C)n(CCCO)c3ncnc(N)c23)cc1 | cell-free assay, competition with immobilised ligand |  | 1 µM |  | remaining binding | 75% |
| CN1CCN(Cc2ccc(-c3ccc(CO[C@H]4CCC[C@@H]4NC(=O)c4cc(-c5cnn(C)c5)cnc4N)cc3)cc2)CC1 | enzyme activity, inhibitor |  | 0.1 µM |  | inhibition | -13% |
